Experimental data from different studies.
Protocols differ between the studies behind these lines. ± gives the spread as reported.
DRD1: D(1A) dopamine receptor (DRD1, Homo sapiens, UniProt P21728)
Gastric inhibitory polypeptide receptor: Gastric inhibitory polypeptide receptor (Mus musculus, UniProt Q0P543)
Adenosylmethionine-8-amino-7-oxononanoate aminotransferase: Adenosylmethionine-8-amino-7-oxononanoate aminotransferase (Mycobacterium tuberculosis, UniProt P9WQ81)
ACE2: Angiotensin-converting enzyme 2 (ACE2, Homo sapiens, UniProt Q9BYF1)

O=C1CC(=O)N(c2ccccc2)c2cc(Cl)ccc2N1  Emax (Gabrg2/Gabra2, with β3 subunit (Rattus norvegicus, UniProt P18508+P23576); positive allosteric modulator, whole-cell patch clamp; HEK293; α2β3γ2 subunits, with: GABA at EC10): 253 ± 32%
CC1C(=NNC(=O)c2ccncc2)C(C)C(c2ccc(Cl)cc2)OC1c1ccc(Cl)cc1 (stereo not drawn)  inhibition (DNA gyrase subunit A/DNA gyrase subunit B (Mycobacterium tuberculosis, UniProt P9WG45+P9WG47); enzyme activity, inhibitor; 6.25 µg/mL): 67.3%
CC(C)C[C@H](NC(=O)[C@H](CCCNC(=N)N)NC(=O)[C@H](Cc1ccccc1)NC(=O)CN)C(=O)N[C@@H](CC(N)=O)C(=O)N[C@@H](CO)C(=O)N[C@@H](C)C(=O)N[C@@H](CO)C(=O)N[C@@H](CCCNC(=N)N)C(=O)N[C@H](C(=O)N[C@@H](C)C(=O)N[C@@H](Cc1c[nH]cn1)C(=O)NCC(=O)N[C@@H](Cc1ccc(O)cc1)C(N)=O)C(C)C  potency ratio (Allatotropin-related peptide receptor 1 (Aplysia californica, UniProt A0ABM0K100); IP1 accumulation, agonist; reference: compound over D2-ATRP): ~20 fold
CN1CCc2cc(Br)c(O)cc2C(c2ccc(NC(=O)CCOCCOCCOCCn3cc(COCCOCCOCCOCCC(=O)NCCc4c[nH]cn4)nn3)cc2)C1 (stereo not drawn)  residence time (DRD1; binding, association-competition; with: GDA 120 nM): 5 to 8 min
NCc1ccc2[nH]c3c(c2c1)CC1(O)C2Cc4ccc(O)c5c4C1(CCN2CC1CC1)C3O5 (stereo not drawn)  selectivity ratio (OPRK1 (Homo sapiens, UniProt P41145); [3H]diprenorphine binding; reference: Ki δ over Ki κ): 1
CC1=C[C@H]2c3c(O)cc(CCc4ccccc4)cc3OC(C)(C)[C@H]2CC1  binding inhibition (SLC6A3 (Homo sapiens, UniProt Q01959); 10 µM): 83%
CCCCCn1cc(C(=O)c2cccc3c2CC(C)(C)C3)c2ccccc21  Emax (CNR1 (Homo sapiens, UniProt P21554, L359V); Gαi1 engagement, agonist, BRET; reference: reference agonist at wild-type CB1): 124 ± 4.1%
CCOC(=O)C1C(OC(c2ccc(Cl)cc2)c2ccc(Cl)cc2)CC2CCC1N2C (single isomer, unassigned)  Ki (DRD1; binding, radioligand displacement; inactive if below 75% at 10000 nM, with: [3H]SCH 23390): inactive
C=C(C)C1C2OC(=O)C1C1(O)CC3OC34C(=O)OC2C14C (stereo not drawn)  Hill coefficient (GABA-A receptor; GABA-A site (alpha1/beta2 interface) (Homo sapiens, UniProt P14867+P47870, V284A); inhibitor, two-electrode voltage clamp; Xenopus oocytes; with: GABA at EC50): 1.34 ± 0.06
CC[C@H](C)[C@H](NC(=O)[C@H](CO)NC(=O)[C@H](Cc1ccc(O)cc1)NC(=O)[C@H](CC(=O)O)NC(=O)[C@H](CO)NC(=O)[C@@H](NC(=O)[C@H](Cc1ccccc1)NC(=O)[C@@H](NC(=O)CNC(=O)[C@H](CCC(=O)O)NC(=O)[C@H](C)NC(=O)[C@@H](N)Cc1ccc(O)cc1)[C@@H](C)O)[C@@H](C)CC)C(=O)N[C@@H](C)C(=O)N[C@@H](CCSC)C(=O)N[C@@H](CC(=O)O)C(=O)N[C@@H](CCCCN)C(=O)N[C@H](C(=O)N[C@@H](CCCNC(=N)N)C(=O)N[C@@H](CCC(N)=O)C(=O)N[C@@H](CCC(N)=O)C(=O)N[C@@H](CC(=O)O)C(=O)N[C@@H](Cc1ccccc1)C(=O)N[C@H](C(=O)N[C@@H](CC(N)=O)C(=O)N[C@@H](Cc1c[nH]c2ccccc12)C(=O)N[C@@H](CC(C)C)C(=O)N[C@@H](CC(C)C)C(=O)N[C@@H](C)C(=O)N[C@@H](CCC(N)=O)C(=O)N[C@@H](CCCCN)C(=O)NCC(=O)N[C@@H](CCCCN)C(=O)N[C@@H](CCCCN)C(=O)N[C@@H](CC(N)=O)C(=O)N[C@@H](CC(=O)O)C(=O)N[C@@H](Cc1c[nH]c2ccccc12)C(=O)N[C@@H](CCCCN)C(=O)N[C@@H](Cc1c[nH]cn1)C(=O)N[C@@H](CC(N)=O)C(=O)N[C@@H](CC(C)C)C(=O)N[C@H](C(=O)N[C@@H](CCC(N)=O)C(=O)O)[C@@H](C)O)C(C)C)[C@@H](C)CC  Emax (Gastric inhibitory polypeptide receptor; COS-7): 144 ± 12%
Cc1ccccc1N1C(=O)/C(=C/c2ccc(OCc3cccc(C(=O)O)c3)cc2)C(=O)NC1=S  selectivity ratio (Tyrosine-protein phosphatase non-receptor type 22 (Ptpn22, Mus musculus, UniProt P29352); phosphatase activity, inhibitor; reference: LYP over mouse PEP): 15
C/C=C(\N)C(=O)CCCCC  EC50 (cqsS (Vibrio cholerae serotype O1, UniProt Q9KM66); bioluminescence, agonist; Vibrio cholerae; reference: Ea-CAI-1 at 100%): 100%
CC[C@H](C)[C@H](NC(=O)[C@H](CO)NC(=O)[C@H](Cc1ccc(O)cc1)NC(=O)[C@H](CC(=O)O)NC(=O)[C@H](CO)NC(=O)[C@@H](NC(=O)[C@H](Cc1ccccc1)NC(=O)[C@@H](NC(=O)CNC(=O)[C@H](CCC(=O)O)NC(=O)[C@H](C)NC(=O)[C@@H](N)Cc1ccc(O)cc1)[C@@H](C)O)[C@@H](C)CC)C(=O)N[C@@H](C)C(=O)N[C@@H](CCSC)C(=O)N[C@@H](CC(=O)O)C(=O)N[C@@H](CCCCN)C(=O)N[C@H](C(=O)N[C@@H](CCCNC(=N)N)C(=O)N[C@@H](CCC(N)=O)C(=O)N[C@@H](CCC(N)=O)C(=O)N[C@@H](CC(=O)O)C(=O)N[C@@H](Cc1ccccc1)C(=O)N[C@H](C(=O)N[C@@H](CC(N)=O)C(=O)N[C@@H](Cc1c[nH]c2ccccc12)C(=O)N[C@@H](CC(C)C)C(=O)N[C@@H](CC(C)C)C(=O)N[C@@H](C)C(=O)N[C@@H](CCC(N)=O)C(=O)N[C@@H](CCCNC(=N)N)C(=O)NCC(=O)N[C@@H](CCCCN)C(=O)N[C@@H](CCCCN)C(=O)N[C@@H](CO)C(=O)N[C@@H](CC(=O)O)C(=O)N[C@@H](Cc1c[nH]c2ccccc12)C(=O)N[C@@H](CCCCN)C(=O)N[C@@H](Cc1c[nH]cn1)C(=O)N[C@@H](CC(N)=O)C(=O)N[C@H](C(=O)N[C@H](C(=O)N[C@@H](CCC(N)=O)C(=O)O)[C@@H](C)O)[C@@H](C)CC)C(C)C)[C@@H](C)CC  Emax (Gastric inhibitory polypeptide receptor; COS-7): 156 ± 13%
CC(=O)Nc1ccc(/C=N/NC(=S)Nc2cccc3cccnc23)cc1  inhibition (Adenosylmethionine-8-amino-7-oxononanoate aminotransferase; 100 µg/mL, with: enzyme 2 µM): > 60%
Cc1cc(S(=O)(=O)N(C)CC(=O)Nc2ccn(C)c(=O)c2)c2[nH]ncc2c1  complex half-life (Dihydrolipoyl dehydrogenase (Mycobacterium tuberculosis, UniProt P9WHH9); SPR): 12 min
CSCC[C@@H](C=O)NC(=O)[C@H](CC(C)C)NC(=O)[C@H](CC(C)C)NC(C)=O  ΔTm (Replicase polyprotein 1ab, main protease (Human coronavirus OC43, UniProt P0C6X6); thermal shift; higher = stronger binding): 3.48 ± 0.02 °C
Nc1ncnc2c1ncn2C1OC(CSCCC(N)C(=O)O)C(O)C1O (stereo not drawn)  kcat (5'-methylthioadenosine/S-adenosylhomocysteine nucleosidase (Vibrio cholerae serotype O1, UniProt Q9KPI8); substrate): 0.5 s⁻¹
CCCCCCc1ccc(Oc2ccccc2Br)c(O)c1  kon (inhA (Mycobacterium tuberculosis, UniProt P9WGR1); inhibitor, progress curve analysis; 20 °C, two-step induced-fit): 55000 M⁻¹ s⁻¹
CNC(=O)N1CCN(c2ccc(NC(=O)Cn3c(C)c(C(=O)c4ccc(OC)cc4)c4ccccc43)cc2C(F)(F)F)CC1  selectivity ratio (DDR2 (Homo sapiens, UniProt Q16832); binding, binding competition; reference: DDR1 over DDR2): ~10 fold
CC(Cc1ccc(O)cc1)NCC(O)c1ccc(O)c(O)c1 (stereo not drawn)  efficacy ratio (ADRB2 (Homo sapiens, UniProt P07550); β-arrestin recruitment over cAMP production, agonist; reference: isoproterenol): ~10
CCCCCn1cc(C(=O)c2ccc3ccccc3c2)c2ccccc21  Emax (CNR1 (Homo sapiens, UniProt P21554, I267L/L193I/L359V); Gαi1 engagement, agonist, BRET; reference: reference agonist at wild-type CB1): 149 ± 2.6%
CCn1ncc2ccc(NS(=O)(=O)c3cc([N+](=O)[O-])cc(Cl)c3F)cc21  Tm decrease (kasA (Mycobacterium tuberculosis, UniProt P9WQD9); thermal stability, nanoDSF): ~1 °C
CC(C)c1nc2cc(O)ccc2c(=O)n1-c1ccc(C#N)cc1  inhibition (TRPV1 (Homo sapiens, UniProt Q8NER1, L515A); ion current, whole-cell patch clamp; 1 µM; reference: wild type): decreased
CC[C@H](C)[C@H](NC(=O)CNC(=O)[C@@H](NC(=O)[C@@H](N)[C@@H](C)O)[C@@H](C)O)C(=O)NCC(=O)N[C@@H](Cc1ccc(O)cc1)C(=O)N[C@@H](CCC(N)=O)C(=O)N1CCC[C@H]1C(=O)N[C@@H](Cc1ccc(O)cc1)C(=O)N[C@@H](CCCNC(=N)N)C(=O)N[C@H](C(=O)N[C@H](C(N)=O)C(C)C)C(C)C  koff (ACE2; binding; pH 8): 0.15 s⁻¹
O=C(Cc1nc2cc(Cl)c(Cl)cc2nc1CC(=O)c1cccnc1)c1cccnc1  inhibition (Adenosylmethionine-8-amino-7-oxononanoate aminotransferase; 100 µg/mL, with: enzyme 2 µM): > 60%
CC(C)C[C@H](NC(=O)[C@H](CCCCN)NC(=O)CNC(=O)[C@H](Cc1c[nH]cn1)NC(=O)[C@H](CCCNC(=N)N)NC(=O)[C@H](CC(C)C)NC(=O)[C@H](Cc1ccc(O)cc1)NC(=O)[C@H](CCCNC(=N)N)NC(=O)[C@H](Cc1ccc(O)cc1)NC(=O)[C@H](CCCCN)NC(=O)[C@@H](N)Cc1ccc(O)cc1)C(=O)N[C@@H](CCCNC(=N)N)C(N)=O  koff (ACE2; binding; pH 8): 0.12 s⁻¹
CC(=O)N[C@H]1[C@@H](O)[C@H](O)[C@@H](CO)O[C@H]1O  kcat (N-acetylmannosamine kinase (nanK, Vibrio cholerae serotype O1, UniProt Q9KR61); substrate, ADP-Glo kinase; with: ATP 0.1 mM): 54 min^–1

Some of these lines once more:
CC(Cc1ccc(O)cc1)NCC(O)c1ccc(O)c(O)c1 (stereo not drawn)  efficacy ratio (ADRB2 (Homo sapiens, UniProt P07550); β-arrestin recruitment over cAMP production, agonist; reference: isoproterenol): ~10
NCc1ccc2[nH]c3c(c2c1)CC1(O)C2Cc4ccc(O)c5c4C1(CCN2CC1CC1)C3O5 (stereo not drawn)  selectivity ratio (OPRK1 (Homo sapiens, UniProt P41145); [3H]diprenorphine binding; reference: Ki δ over Ki κ): 1
CC1C(=NNC(=O)c2ccncc2)C(C)C(c2ccc(Cl)cc2)OC1c1ccc(Cl)cc1 (stereo not drawn)  inhibition (DNA gyrase subunit A/DNA gyrase subunit B (Mycobacterium tuberculosis, UniProt P9WG45+P9WG47); enzyme activity, inhibitor; 6.25 µg/mL): 67.3%
